Values quoted from earlier work as cited in several papers.
Each line is one published result; not all experiments were run side by side. Converted amounts (≈) assume the structure as drawn.
UniProt P42336, sequence (whole entry, looked up): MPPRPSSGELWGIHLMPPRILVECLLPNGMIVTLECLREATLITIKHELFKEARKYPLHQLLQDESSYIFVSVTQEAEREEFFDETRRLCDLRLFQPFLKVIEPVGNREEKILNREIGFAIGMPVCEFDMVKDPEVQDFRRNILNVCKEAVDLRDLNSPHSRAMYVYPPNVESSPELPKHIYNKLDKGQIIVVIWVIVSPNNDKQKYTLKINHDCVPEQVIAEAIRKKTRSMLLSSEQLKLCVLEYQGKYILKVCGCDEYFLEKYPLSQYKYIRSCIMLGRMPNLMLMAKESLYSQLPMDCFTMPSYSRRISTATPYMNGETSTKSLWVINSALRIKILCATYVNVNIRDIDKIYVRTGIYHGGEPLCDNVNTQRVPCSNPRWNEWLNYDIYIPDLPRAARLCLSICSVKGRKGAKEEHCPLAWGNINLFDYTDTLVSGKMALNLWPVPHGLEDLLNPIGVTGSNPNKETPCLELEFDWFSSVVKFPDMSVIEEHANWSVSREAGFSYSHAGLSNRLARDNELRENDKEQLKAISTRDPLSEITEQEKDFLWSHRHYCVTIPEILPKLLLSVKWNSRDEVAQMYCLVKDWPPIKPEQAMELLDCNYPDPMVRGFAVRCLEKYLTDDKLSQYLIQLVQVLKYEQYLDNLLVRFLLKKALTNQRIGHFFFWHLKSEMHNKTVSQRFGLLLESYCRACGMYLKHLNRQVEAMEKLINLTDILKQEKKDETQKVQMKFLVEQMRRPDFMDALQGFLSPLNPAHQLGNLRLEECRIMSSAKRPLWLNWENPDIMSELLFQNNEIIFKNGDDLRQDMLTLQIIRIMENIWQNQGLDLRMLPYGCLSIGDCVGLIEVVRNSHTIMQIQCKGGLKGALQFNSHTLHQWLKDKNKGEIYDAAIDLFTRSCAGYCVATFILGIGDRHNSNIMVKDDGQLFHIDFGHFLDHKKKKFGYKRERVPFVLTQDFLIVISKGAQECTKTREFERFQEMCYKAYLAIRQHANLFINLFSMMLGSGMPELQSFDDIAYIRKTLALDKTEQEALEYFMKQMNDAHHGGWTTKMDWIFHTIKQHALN

SMILES | target or system | assay | system | conditions | endpoint | result
Cc1ccncc1NC(=O)Cc1cccc(Br)c1 | main protease (Mpro) | – | – | 20 µM | inhibition | 56.2%
CNC(=O)[C@H](Cc1c[nH]c2ccccc12)NC(=O)[C@@H](CC(=O)NO)CC(C)C | ADAM9 | inhibitor | – | – | IC50 | 1 nM
C[C@@H](O)[C@H]1C(=O)N2C(C(=O)O)=C(S[C@@H]3CN[C@H](C(=O)N(C)C)C3)[C@H](C)[C@H]12 | Escherichia coli | – | AR0346 colistin resistant | – | MIC | < 0.12 µg/mL
Nc1ncc(-c2nc(N3CCOCC3)nc(N3CCOCC3)n2)c(C(F)F)n1 | Phosphatidylinositol 4,5-bisphosphate 3-kinase catalytic subunit alpha isoform (PIK3CA, Homo sapiens, UniProt P42336) | KinomeScan competition binding | – | 10 µM | remaining binding | 0%
CCCCCOc1ccc(-c2ccc(-c3ccc(C(=O)N[C@H]4C[C@@H](O)[C@@H](O)NC(=O)[C@@H]5[C@@H](O)[C@@H](C)CN5C(=O)[C@H]([C@@H](C)O)NC(=O)[C@H]([C@H](O)[C@@H](O)c5ccc(O)cc5)NC(=O)[C@@H]5C[C@@H](O)CN5C(=O)[C@H]([C@@H](C)O)NC4=O)cc3)cc2)cc1 | – | – | typical invasive aspergillosis patient | 200/100 mg, male 70 kg | mean clearance | 1.2 L/h
CC(C)C[C@H](NC(=O)[C@H](Cc1ccccc1)NC(=O)c1cnccn1)B(O)O | CMA1 | enzyme activity, inhibitor | – | 10 µM | inhibition | 95%
COc1ccc2c(c1)c(CC(=O)O)c(C)n2C(=O)c1ccc(Cl)cc1 | prostaglandin E synthase 2 (PTGES2) | inhibitor | – | – | IC50 | 750 nM
Cc1ccncc1NC(=O)Cc1cccc(F)c1 | main protease (Mpro) | – | – | 20 µM | inhibition | 39.6%
CCCCCCCCCCC[C@@H](C[C@@H]1OC(=O)[C@H]1CCCCCC)OC(=O)[C@H](CC(C)C)NC=O | ABHD12 | inhibitor | – | – | IC50 | 80 nM
c1ccc2c(c1)OCC(C1=NCCN1)O2 (stereo not shown) | imidazoline I2 receptor | binding | brain | historical reference data | Hill coefficient | 1
CC(C)(O/N=C(\C(=O)N[C@@H]1C(=O)N2C(C(=O)[O-])=C(C[N+]3(CCNC(=O)c4ccc(O)c(O)c4Cl)CCCC3)CS[C@H]12)c1csc(N)n1)C(=O)O | KPC-2 | hydrolysis by enzyme, substrate | – | – | kcat | > 0.03 s⁻¹
CC(C)(O/N=C(\C(=O)N[C@@H]1C(=O)N2C(C(=O)[O-])=C(C[n+]3ccccc3)CS[C@H]12)c1csc(N)n1)C(=O)O | Escherichia coli | bacterial growth | colistin-resistant | – | MIC | 16 µg/mL (≈ 29.3 µM)
Cc1ccncc1NC(=O)C(C)(C)c1cccc(Cl)c1 | main protease (Mpro) | – | – | 20 µM | inhibition | 49.3%

Repeated from above:
SMILES | target or system | assay | system | conditions | endpoint | result
CC(C)(O/N=C(\C(=O)N[C@@H]1C(=O)N2C(C(=O)[O-])=C(C[n+]3ccccc3)CS[C@H]12)c1csc(N)n1)C(=O)O | Escherichia coli | bacterial growth | colistin-resistant | – | MIC | 16 µg/mL (≈ 29.3 µM)
